Assay results pooled from the literature.
Parts stem from different laboratories: compare values within a part only.

Set 1 — technique: universal PBM; form: double-stranded DNA, one strand shown; matrix: in vitro; tested at: not given; reading: higher = stronger binding
Target: Sal-like protein 4, full length isoform B (SALL4, Homo sapiens, UniProt Q9UJQ4-2, residues 1-616)
Notes: 8-mer, flanks averaged, mean of replicates
`AACTAGAA` gave an E-score of 0.181.
With `AACTCGTG` the E-score was -0.00326.
With `ACGGTTCC` the E-score was -0.144.
`ATTTGGTA` has an E-score of 0.215.

Set 2 — technique: protein-binding microarray; form: double-stranded DNA, one strand shown; matrix: in vitro; tested at: not given; reading: higher = stronger binding
Target: Transcriptional repressor CTCF (CTCF, Homo sapiens, UniProt P49711, residues 1-727, full length assumed)
Chain of UniProt P49711 (whole entry, looked up): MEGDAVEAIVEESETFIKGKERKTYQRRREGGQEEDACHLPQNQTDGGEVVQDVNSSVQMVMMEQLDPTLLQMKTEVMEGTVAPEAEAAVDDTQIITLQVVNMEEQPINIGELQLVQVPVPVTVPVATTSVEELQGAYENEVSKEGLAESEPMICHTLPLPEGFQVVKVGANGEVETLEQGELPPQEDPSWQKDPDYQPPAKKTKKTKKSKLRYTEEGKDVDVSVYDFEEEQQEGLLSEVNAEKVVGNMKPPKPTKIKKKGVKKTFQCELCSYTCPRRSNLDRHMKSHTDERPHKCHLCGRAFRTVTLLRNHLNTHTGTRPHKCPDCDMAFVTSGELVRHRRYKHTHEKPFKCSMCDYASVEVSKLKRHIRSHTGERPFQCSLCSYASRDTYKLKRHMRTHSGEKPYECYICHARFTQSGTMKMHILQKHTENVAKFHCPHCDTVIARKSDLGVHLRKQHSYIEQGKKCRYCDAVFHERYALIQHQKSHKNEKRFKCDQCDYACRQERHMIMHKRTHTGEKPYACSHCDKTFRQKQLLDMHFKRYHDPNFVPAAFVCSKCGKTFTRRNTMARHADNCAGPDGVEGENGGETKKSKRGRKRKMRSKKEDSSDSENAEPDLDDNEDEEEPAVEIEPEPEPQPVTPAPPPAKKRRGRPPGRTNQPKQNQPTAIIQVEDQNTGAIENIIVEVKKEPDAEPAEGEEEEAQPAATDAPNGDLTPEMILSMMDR
Notes: k-mer, scored over probes, only values ≥0.25
`CAAATACA` gave an E-score of 0.321.
For `GAGGGCGC`, the E-score was 0.338.
With `ACTATATG` the E-score was 0.259.
`GATAGCGC` has an E-score of 0.29.

Set 3 — technique: protein-binding microarray; form: double-stranded DNA, one strand shown; matrix: in vitro; tested at: 2200 nM top; notes: 60-bp whole probe; with: salmon DNA 0.4 mg/ml; relative to: random background probes; reading: higher = stronger binding
Target: Interferon regulatory factor 7, full length, phosphomimetic (IRF7, Homo sapiens, UniProt Q92985, residues 1-503, S471D/S472D/S475D/S476D/S477D/S483D/S484D/S487D)
Construct (chain): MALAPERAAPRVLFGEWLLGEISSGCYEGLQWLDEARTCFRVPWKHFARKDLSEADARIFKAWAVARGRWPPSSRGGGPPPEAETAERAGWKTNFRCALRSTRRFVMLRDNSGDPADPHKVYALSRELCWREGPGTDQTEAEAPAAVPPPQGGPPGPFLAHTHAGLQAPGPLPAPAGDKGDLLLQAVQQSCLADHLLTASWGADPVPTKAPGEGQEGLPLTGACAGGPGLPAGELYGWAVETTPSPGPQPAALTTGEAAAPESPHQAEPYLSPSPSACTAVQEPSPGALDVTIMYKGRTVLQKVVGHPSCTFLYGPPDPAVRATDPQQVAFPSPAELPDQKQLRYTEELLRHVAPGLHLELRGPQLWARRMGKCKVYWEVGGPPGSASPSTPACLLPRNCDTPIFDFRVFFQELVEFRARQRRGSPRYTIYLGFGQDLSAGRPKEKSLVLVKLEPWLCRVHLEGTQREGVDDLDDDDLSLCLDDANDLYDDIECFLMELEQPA
Under “fitted relative affinity”, `GCCTAGCACTCAGTTTCCTCTTTCTTACTGTGCTAGGTCTTGATTCGCTTGACGCTGCTG` is recorded as 5.08 z-score.
For `GCCTAGCACTTAGGACTGGGACTGGGCTAGTGCTAGGTCTTGATTCGCTTGACGCTGCTG`, “fitted relative affinity” read -1.15 z-score.
Under “fitted relative affinity”, `GCCTAGCACGCCGGTTTCGGGTATCGGGACGTGCTAGTCTTGATTCGCTTGACGCTGCTG` is recorded as 7.42 z-score.
`GCCTAGCACTTAGATTTCAATTTCGATTAGTGCTAGGTCTTGATTCGCTTGACGCTGCTG`: “fitted relative affinity” 3.79 z-score.

Further values, each from its own experiment
With `PhoQ, residues 284 288 289 292 302 303 ALASRC` the fold induction was 6.41 (PhoP, residues 12 14 15 18 19 NMSSL (Escherichia coli, UniProt P23836); Sort-seq, refers to: YFP reporter; E. coli; PhoQ-PhoP variant library, with: 10 µM Mg2+; relative to: high Mg2+ state, higher = stronger signaling).
